Results pooled from the literature.
Protocols differ between the studies behind these lines. Numbers after ± are the reported error. Values after ≈ are worked out from the molar mass of the structure shown.
BCHE: Cholinesterase (BCHE, Homo sapiens, UniProt P06276)
Chain of UniProt P06276 (whole entry, looked up): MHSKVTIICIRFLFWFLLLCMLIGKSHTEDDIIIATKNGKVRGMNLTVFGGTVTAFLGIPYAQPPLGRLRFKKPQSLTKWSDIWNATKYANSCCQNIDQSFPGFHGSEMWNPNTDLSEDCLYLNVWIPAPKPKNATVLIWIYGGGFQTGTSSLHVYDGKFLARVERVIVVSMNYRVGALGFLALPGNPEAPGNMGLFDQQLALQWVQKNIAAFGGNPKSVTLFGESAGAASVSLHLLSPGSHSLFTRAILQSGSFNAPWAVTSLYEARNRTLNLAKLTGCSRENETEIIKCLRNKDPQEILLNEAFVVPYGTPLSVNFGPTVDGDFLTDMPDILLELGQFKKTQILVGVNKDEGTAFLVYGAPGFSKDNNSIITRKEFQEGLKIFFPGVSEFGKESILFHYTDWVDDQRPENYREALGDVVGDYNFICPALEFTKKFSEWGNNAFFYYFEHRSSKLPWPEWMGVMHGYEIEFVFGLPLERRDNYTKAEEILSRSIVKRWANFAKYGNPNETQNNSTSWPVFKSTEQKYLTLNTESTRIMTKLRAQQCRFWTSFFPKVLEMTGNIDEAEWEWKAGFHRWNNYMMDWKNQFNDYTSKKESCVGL
Chain of UniProt P11362 (whole entry, looked up): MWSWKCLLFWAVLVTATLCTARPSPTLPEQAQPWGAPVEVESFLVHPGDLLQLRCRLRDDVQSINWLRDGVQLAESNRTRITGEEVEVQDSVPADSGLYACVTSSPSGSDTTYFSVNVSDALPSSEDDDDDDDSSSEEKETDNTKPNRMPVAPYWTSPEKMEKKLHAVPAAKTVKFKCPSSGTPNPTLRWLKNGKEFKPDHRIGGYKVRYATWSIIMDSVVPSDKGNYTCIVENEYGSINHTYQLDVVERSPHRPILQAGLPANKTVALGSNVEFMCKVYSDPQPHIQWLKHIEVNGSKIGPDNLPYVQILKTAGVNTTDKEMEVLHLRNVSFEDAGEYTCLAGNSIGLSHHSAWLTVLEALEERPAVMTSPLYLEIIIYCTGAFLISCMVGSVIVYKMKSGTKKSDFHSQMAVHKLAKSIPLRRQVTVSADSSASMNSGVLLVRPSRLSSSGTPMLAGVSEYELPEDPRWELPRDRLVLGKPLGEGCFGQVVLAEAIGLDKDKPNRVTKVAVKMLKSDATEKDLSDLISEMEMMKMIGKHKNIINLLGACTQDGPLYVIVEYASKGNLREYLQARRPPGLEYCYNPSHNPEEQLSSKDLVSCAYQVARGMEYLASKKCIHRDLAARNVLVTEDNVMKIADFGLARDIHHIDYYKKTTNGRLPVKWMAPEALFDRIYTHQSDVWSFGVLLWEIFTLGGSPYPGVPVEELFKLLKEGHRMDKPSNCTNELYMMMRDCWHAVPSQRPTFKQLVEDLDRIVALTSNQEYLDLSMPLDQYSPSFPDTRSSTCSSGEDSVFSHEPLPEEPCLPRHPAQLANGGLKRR

SMILES | tested on | assay | system | conditions | how to read | measurement | value
CC(C)[C@@H]1NC(=O)[C@H](Cc2ccccc2)NC(=O)[C@@H]2NC(=O)[C@H](Cc3ccccc3)NC(=O)[C@@H]3CCCN3C(=O)CNC(=O)[C@H](Cc3ccccc3)NC(=O)[C@@H]3CNCCCC[C@@H](C(=O)O)NC(=O)[C@@H]4NC(=O)[C@H](CC(N)=O)NC(=O)CNC(=O)[C@H]([C@@H](O)C(=O)O)NC(=O)[C@H](CSC[C@@H](NC(=O)[C@H](CCC(N)=O)NC(=O)[C@H](CCCCNC(=O)c5ccc(NN)nc5)NC(=O)[C@@H](N)CS[C@H]4C)C(=O)N[C@@H](CS[C@H]2C)C(=O)N3)NC1=O [technetium-99m labelled] |  |  | rat 45 min ischemia, 2 h reperfusion, myocardial hot-spot | 2 h | relative to: 2 min post-injection | fractional retention | 356 ± 52.4%
O=C(Nc1cccnn1)N1CCC(=Cc2cccc(Oc3ccc(C(F)(F)F)cn3)c2)CC1 | FGFR1 (Homo sapiens, UniProt P11362) | kinase activity, inhibitor |  | 10 µM, human, added: poly(Glu:Tyr) substrate |  | inhibition | -6%
CCOc1cccc(=O)c2c(C)n(Cc3ccc(Cl)cc3)c(C)c12 | Plasmodium falciparum | parasite growth |  |  |  | EC50 | 0.164 ± 0.11 µM
CC/N=c1/scc(-c2ccc(Br)cc2)n1/N=C/c1ccc(O)c(O)c1O | Gag-Pol polyprotein, integrase with LEDGF/p75 (gag-pol, Human immunodeficiency virus 1, UniProt P12497) | LEDGF/p75-integrase interaction, inhibitor, AlphaScreen |  |  |  | IC50 | < 25 µM
C[C@H]1c2cccc(O)c2C(=O)C2=C(O)[C@]3(O)C(=O)C(C(N)=O)=C(O)[C@@H](N(C)C)[C@@H]3[C@@H](O)[C@@H]21 | Plasmodium falciparum |  | W2 |  |  | IC50 | 0.794 µM
N=C(N)NCCC[C@@H]1NC(=O)[C@H](CCCCNC(=O)c2ccc(CNC34CNCCNCC(N)(CNCCNC3)CNCCNC4)cc2)NC(=O)[C@@H](Cc2ccc(O)cc2)NC(=O)[C@H](CC(=O)O)NC(=O)CNC1=O [copper-64 labelled] |  | microPET | male athymic nude mouse, PC-3 tumour, liver | intravenous, 7.4 MBq, 24 h |  | tissue uptake | 0.96 ± 0.14 %ID/g
CC(C)[C@@H]1NC(=O)[C@@H](CCCNC(=N)N)NC(=O)[C@H]([C@@H](C)O)NC(=O)[C@@H](CCCNC(=N)N)NC(=O)[C@H](Cc2ccccc2)NC(=O)[C@@H](Cc2ccccc2)NC1=O | Acanthamoeba castellanii |  |  | trophozoites |  | IC90 | > 16 µg/mL
Cc1cc(Cl)cc(S(C)(=O)=O)c1NC(=O)c1cc(Br)nn1-c1ncccc1Cl | Spodoptera litura | leaf-dip | third instar larvae | 6.25 ppm, 72 h |  | mortality | 96.7%
c1ccc(C2(c3ccccc3)CC2C2=NCCN2)cc1 (centres unmarked) | BCHE | inhibitor |  |  |  | IC50 | 4.17 ± 0.27 µM
C#Cc1ccc(O)c(C=NNC(=O)c2ccc(Br)cc2Br)c1 | Candida albicans |  | A39 | unit not given, added: caspofungin | lower = more synergy | FICI | 1.25
CC(C)[C@@H]1NC(=O)[C@@H](CCCCN)NC(=O)[C@H]([C@@H](C)O)NC(=O)[C@@H](CCCCN)NC(=O)[C@H](Cc2c[nH]c3ccccc23)NC(=O)[C@@H](C)NC(=O)[C@@H](C(C)C)NC(=O)[C@@H](C)NC(=O)[C@H](Cc2c[nH]c3ccccc23)NC(=O)[C@@H](Cc2c[nH]c3ccccc23)NC1=O | Naegleria fowleri |  |  | trophozoites |  | IC90 | > 16 µg/mL
CC(C)(C)c1cc(C=C(C#N)C#N)cc(C(C)(C)C)c1O | Plasmodium falciparum |  | HB3 |  |  | IC50 | 1 µM
CC[C@H](C)[C@H](NC(=O)[C@H](C)NC(=O)[C@H](CCCCN)NC(=O)[C@H](CC(C)C)NC(=O)[C@H](C)NC(=O)[C@@H](NC(=O)[C@H](Cc1c[nH]cn1)NC(=O)[C@H](CC(C)C)NC(=O)[C@@H](NC(=O)[C@@H](NC(=O)[C@H](CCCCN)NC(=O)[C@H](C)NC(=O)[C@H](C)NC(=O)[C@H](CO)NC(=O)[C@H](CCCCN)NC(=O)[C@H](Cc1ccccc1)NC(=O)[C@@H](NC(=O)[C@H](CCCCN)NC(=O)[C@H](CC(C)C)NC(=O)[C@H](Cc1ccccc1)NC(=O)[C@H](CO)NC(=O)[C@H](CCCCN)NC(=O)[C@H](Cc1c[nH]c2ccccc12)NC(=O)[C@H](CCCCN)NC(C)=O)[C@@H](C)O)[C@@H](C)O)C(C)C)[C@@H](C)O)C(=O)N[C@@H](CO)C(=O)N[C@@H](CO)C(N)=O | Pseudomonas aeruginosa |  | ATCC 27853 |  |  | MIC50 | 4 µg/mL (≈ 1.36 µM)
CC(C)[C@@H]1NC(=O)[C@@H](Cc2ccccc2)NC(=O)[C@H](CCCNC(=N)N)NC(=O)[C@@H]([C@H](C)O)NC(=O)[C@H](CC(N)=O)NC(=O)[C@@H](C(C)C)NC1=O | Acanthamoeba castellanii |  |  | trophozoites |  | IC90 | > 16 µg/mL
CCc1cccc(N(C)C(=N)Nc2cccc3ccccc23)c1 | Plasmodium falciparum |  | 7G8 |  |  | IC50 | 3.16 µM
CCCOc1ccccc1-c1nc2sc3c(c2c(=O)[nH]1)CCN(C)C3 | Plasmodium falciparum | parasite growth, SYBR Green | 3D7 DHODH E182D | 72 h |  | EC50 | > 12.5 µM
O=C(CCCN1CC=C(n2c(=O)[nH]c3ccccc32)CC1)c1ccc(F)cc1 | Plasmodium falciparum |  | 7G8 |  |  | IC50 | 5.01 µM
COc1nc(NCC(C)C)nc(Oc2ccc(=O)n(Cc3ccccc3)n2)n1 | Plasmodium falciparum | parasite growth, SYBR Green | 3D7 wild type | 72 h |  | EC50 | 0.386 ± 0.091 µM
C[C@@H](O)[C@@H]1NC(=O)[C@H](Cc2ccccc2)NC(=O)[C@@H](Cc2ccccc2)NC(=O)[C@H](Cc2ccccc2)NC(=O)[C@@H](CCCN)NC(=O)[C@H](CCCCN)NC(=O)[C@@H](CCCCN)NC1=O | Acanthamoeba castellanii |  |  | trophozoites |  | IC90 | > 16 µg/mL
Cc1sc(CNCCCNc2cc(=O)c3ccccc3[nH]2)c(I)c1C | Plasmodium falciparum | parasite growth, SYBR Green | 3D7 wild type | 72 h |  | EC50 | < 0.01 µM
COc1ccccc1N1CCN(CCCCNC(=O)c2ccc3ccccc3c2)CC1 | Plasmodium falciparum |  | GB4 |  |  | IC50 | 10 µM
CSc1nc2nc(C)c(Cc3cccc(C(F)(F)F)c3)c(C)n2n1 | Plasmodium falciparum | parasite growth, SYBR Green |  | 72 h | relative to: 3D7-E182D over 3D7 | EC50 ratio | 3.9
NCCCC[C@@H]1NC(=O)[C@@H](CCCCN)NC(=O)[C@H](CO)NC(=O)[C@H](Cc2c[nH]c3ccccc23)NC(=O)[C@@H](Cc2c[nH]c3ccccc23)NC(=O)[C@H](Cc2ccccc2)NC(=O)[C@@H](CCCCN)NC1=O | Acanthamoeba castellanii |  |  | trophozoites |  | IC50 | > 16 µg/mL
CN[C@@H](C)[C@H]1[C@H](O)C[C@@]2(C)[C@@H]3CC[C@H]4C(C)(C)[C@@H](NC)CC[C@@]45C[C@@]35CC[C@]12C | BCHE | inhibitor |  |  |  | IC50 | 3.34 ± 0.17 µM
CNCC[C@@H](Oc1ccccc1C)c1ccccc1 | Plasmodium falciparum |  | 3D7 |  |  | IC50 | 20 µM
CC(C)[C@@H]1NC(=O)[C@@H](CC(N)=O)NC(=O)[C@H](Cc2ccccc2)NC(=O)[C@@H](CCCN)NC(=O)[C@H](CCCN)NC(=O)[C@H]([C@@H](C)O)NC(=O)[C@@H](C(C)C)NC(=O)[C@H](C(C)C)NC(=O)[C@@H]([C@H](C)O)NC(=O)[C@@H](C(C)C)NC1=O | Acanthamoeba castellanii |  |  | trophozoites |  | IC50 | 11.2 µg/mL
CC(=O)c1ccc(/N=N/c2ccc(C[P+](c3ccccc3)(c3ccccc3)c3ccccc3)cc2)cc1 | Gag-Pol polyprotein, integrase (gag-pol, Human immunodeficiency virus 1, UniProt P12497) | 3'-processing activity, inhibitor |  | wild-type integrase |  | IC50 | > 100 µM
CN1CCC(=C2c3ccccc3CC(=O)c3sccc32)CC1 | Plasmodium falciparum |  | HB3 |  |  | IC50 | 10 µM
CC(C)[C@@H]1NC(=O)[C@@H](C(C)C)NC(=O)[C@H](C)NC(=O)[C@H](CO)NC(=O)[C@H](Cc2c[nH]c3ccccc23)NC(=O)[C@@H](Cc2ccc(O)cc2)NC(=O)[C@H](CCCN)NC(=O)[C@H](Cc2c[nH]c3ccccc23)NC1=O | Acanthamoeba castellanii |  |  | trophozoites |  | IC50 | > 16 µg/mL

Repeated from above:
SMILES | tested on | assay | system | conditions | how to read | measurement | value
CCCOc1ccccc1-c1nc2sc3c(c2c(=O)[nH]1)CCN(C)C3 | Plasmodium falciparum | parasite growth, SYBR Green | 3D7 DHODH E182D | 72 h |  | EC50 | > 12.5 µM
c1ccc(C2(c3ccccc3)CC2C2=NCCN2)cc1 (centres unmarked) | BCHE | inhibitor |  |  |  | IC50 | 4.17 ± 0.27 µM
CC(C)[C@@H]1NC(=O)[C@@H](C(C)C)NC(=O)[C@H](C)NC(=O)[C@H](CO)NC(=O)[C@H](Cc2c[nH]c3ccccc23)NC(=O)[C@@H](Cc2ccc(O)cc2)NC(=O)[C@H](CCCN)NC(=O)[C@H](Cc2c[nH]c3ccccc23)NC1=O | Acanthamoeba castellanii |  |  | trophozoites |  | IC50 | > 16 µg/mL
